Measurements from different studies.
Every numbered part comes from another study and shows a few of its results, in no order. Changes are numbered by the printed parent chain.

Study 1
Target: RNA binding protein fox-1 homolog 2, RRM domain, GST-SBP tag (RBFOX2, Homo sapiens, UniProt O43251-10, residues 100-194)
Technique: RNA Bind-n-Seq
Molecule type: RNA
Medium: in vitro
Concentration: 365 nM
Setting: natural RNA segment, single round, ends assumed
Baseline: no-protein control
Direction: higher = stronger binding
Target sequence (chain): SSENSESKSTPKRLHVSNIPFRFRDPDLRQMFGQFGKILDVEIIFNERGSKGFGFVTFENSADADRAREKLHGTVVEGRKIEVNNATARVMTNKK
| Sequence | RBNS enrichment (R) |
| --- | --- |
| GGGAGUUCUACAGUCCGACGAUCAAACGUUCACCCAGUGAUCUUGGGCUGGGGUUGUCUUUAGGAAAAGUUGAGACUAUAAGAGUCAUAAAUAAGUCCUUGUGUUUCCUUAAUUUAUUUUGUUAACACCCCUAUGGAAUUCUCGGGUGCCAA | 0.38 |
| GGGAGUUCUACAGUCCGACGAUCCUAGGCUGGCCAUAGACCCAGCUCUGCCUCACCCUGCCAUGUUCCAGUAAUGGAGGCCUCCAGCCUGGGCUCUAUUACAUUCUUCUCUACAGCUGCCCCAUAACCCGUGGUGGAAUUCUCGGGUGCCAA | 0.605 |
| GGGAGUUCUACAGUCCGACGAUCCAGAAGCCGAACAAGUGAGAGUAAUGUAUAAUUCUCUCAUUUUUUUGUAGGUCUCUAAUAAAGAACUUUAUGUGGUCCUUCUACCUCUUGCUGUGAAGAACAGAGCCCACUGGAAUUCUCGGGUGCCAA | 0.275 |
| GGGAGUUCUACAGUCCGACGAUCUGGGCUGUGGUGGUGUUGAUCAGUUGCUCCAGUGUUUGAAAUAAGAAGACUCAUGUUUAUGUCUGGAAUAAGUUCUGUUUGUGCUGACAGGUGGCCUAGGUCCUGGAGAUUGGAAUUCUCGGGUGCCAA | 2.46 |
| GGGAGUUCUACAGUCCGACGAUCAGCCCACCACAGAGGCCACAGGCAGGCCCCCACUUCAGGCCCAAGGCCUGGGGCGGGGGGAACAGUCACUGGGUCUCAGAUUCUGAGACUGUUGUUUAGCUUACCUUUCUUGGAAUUCUCGGGUGCCAA | 0.135 |
| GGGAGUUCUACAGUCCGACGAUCCAGAUGUCUAUUUGUAUAAUUACUUGAUCUACACAGUGAGGAAAAAAAUGAAUGUAUUUCUGUUUUUGAAGAGAAUAAUUUUUUUCUCUAGGGAGAGGCGAGGUUACAGUUGGAAUUCUCGGGUGCCAA | 2.86 |
| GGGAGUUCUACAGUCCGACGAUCCCUCCCGAGCACUGGGAUUAAAGGUGUGCACCACCACUGUCUGGCUCAGGAAAGCUGUUUUUACACUGAACAGCCAGCCUUGCUCUGUAGCAGGUGUGCUCGAGGACUGUUGGAAUUCUCGGGUGCCAA | 0.386 |
| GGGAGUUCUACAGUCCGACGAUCAGCACUGGACAGUACACUCUGGUGUACACACUUGCGCACACAUAUACACACACAAUAAUUUUUUAAACUCCAUAAAGUUAUUAACAUGUCAGCAGGCAGAGCAUUGCAGUUGGAAUUCUCGGGUGCCAA | 0.65 |

Study 2
Target: Prothrombin, mature alpha-thrombin (F2, Homo sapiens, UniProt P00734)
Technique: aptamer microarray, sandwich
Molecule type: DNA with 2'F-ANA
Medium: in vitro
Concentration: 200 nM
Setting: whole 15-mer aptamer, many near background
With: Cy3 exosite-II aptamer, 400 nM
Direction: higher = stronger binding
Sequence: GGTTGGTGTGGTTGG
| Modification | mean fluorescence intensity |
| --- | --- |
| 2'F-ANA at 1 2 5 6 9 11 12 13 14 | 64 a.u. |
| 2'F-ANA at 1 2 3 5 7 8 10 12 13 15 | 53.8 a.u. |
| 2'F-ANA at 5 7 8 10 14 | 47.3 a.u. |
| 2'F-ANA at 6 7 8 9 10 11 15 | 134 a.u. |
| 2'F-ANA at 2 4 5 6 7 13 | 54.4 a.u. |
| 2'F-ANA at 4 5 7 8 9 10 11 13 14 | 67.3 a.u. |
| 2'F-ANA at 1 3 5 9 10 13 15 | 81.1 a.u. |
| 2'F-ANA at 1 5 6 7 8 9 10 11 14 | 52.6 a.u. |
| 2'F-ANA at 1 2 3 6 8 10 13 14 15 | 56.9 a.u. |
| 2'F-ANA at 1 3 4 5 8 11 12 15 | 92.7 a.u. |

Study 3
Target: CCNA1, cyclin fold, Cln2 fusion (human)
Technique: yeast growth competition, sequencing
Medium: yeast
Setting: weak parent motif
Baseline: not given
Direction: higher = stronger binding
Starting sequence: ASZ1 docking peptide (human); GFGFLLFICKLTF; partner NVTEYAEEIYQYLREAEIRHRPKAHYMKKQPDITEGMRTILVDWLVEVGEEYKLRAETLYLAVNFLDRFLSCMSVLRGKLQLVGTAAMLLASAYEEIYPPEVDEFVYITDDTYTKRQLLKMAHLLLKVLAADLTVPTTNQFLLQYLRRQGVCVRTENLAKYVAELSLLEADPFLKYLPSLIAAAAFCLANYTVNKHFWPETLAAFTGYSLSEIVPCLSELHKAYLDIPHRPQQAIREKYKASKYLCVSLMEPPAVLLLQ
| Change | normalised enrichment score |
| --- | --- |
| C9A | -0.152 |
| L5A | -0.402 |
| G1A | -0.172 |
| L11A | -0.531 |
| G3A | 0.211 |
| T12A | -0.217 |
| K10A | 0.659 |

Mixed results
| Molecule | target | assay | system | setting | how to read | quantity | value |
| --- | --- | --- | --- | --- | --- | --- | --- |
| PhoQ, residues 284 288 289 292 302 303 AEGLLW | PhoP, residues 12 14 15 18 19 SPWRL (Escherichia coli, UniProt P23836) | Sort-seq, refers to: YFP reporter | E. coli | PhoQ-PhoP variant library, with: 10 µM Mg2+ | baseline: high Mg2+ state, higher = stronger signaling | fold induction | 0.704 |

Excerpt of the above (study 2):
| Modification | mean fluorescence intensity |
| --- | --- |
| 2'F-ANA at 4 5 7 8 9 10 11 13 14 | 67.3 a.u. |
